Results of several laboratories.
Every numbered part comes from another study and shows a few of its results, in no order.
Sequence of UniProt Q9P289 (whole entry, looked up): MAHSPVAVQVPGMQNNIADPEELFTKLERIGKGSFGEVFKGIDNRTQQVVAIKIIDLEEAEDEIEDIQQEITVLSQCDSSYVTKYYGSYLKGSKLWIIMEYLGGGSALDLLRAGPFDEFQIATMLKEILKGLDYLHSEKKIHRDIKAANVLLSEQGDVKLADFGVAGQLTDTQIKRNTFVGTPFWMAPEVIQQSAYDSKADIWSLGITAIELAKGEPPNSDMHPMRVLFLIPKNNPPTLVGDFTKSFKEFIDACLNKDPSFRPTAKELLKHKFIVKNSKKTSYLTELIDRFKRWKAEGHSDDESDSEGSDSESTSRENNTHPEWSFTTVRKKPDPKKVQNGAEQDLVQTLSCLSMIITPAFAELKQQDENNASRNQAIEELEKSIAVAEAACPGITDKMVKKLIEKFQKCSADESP
Sequence of UniProt Q00536 (whole entry, looked up): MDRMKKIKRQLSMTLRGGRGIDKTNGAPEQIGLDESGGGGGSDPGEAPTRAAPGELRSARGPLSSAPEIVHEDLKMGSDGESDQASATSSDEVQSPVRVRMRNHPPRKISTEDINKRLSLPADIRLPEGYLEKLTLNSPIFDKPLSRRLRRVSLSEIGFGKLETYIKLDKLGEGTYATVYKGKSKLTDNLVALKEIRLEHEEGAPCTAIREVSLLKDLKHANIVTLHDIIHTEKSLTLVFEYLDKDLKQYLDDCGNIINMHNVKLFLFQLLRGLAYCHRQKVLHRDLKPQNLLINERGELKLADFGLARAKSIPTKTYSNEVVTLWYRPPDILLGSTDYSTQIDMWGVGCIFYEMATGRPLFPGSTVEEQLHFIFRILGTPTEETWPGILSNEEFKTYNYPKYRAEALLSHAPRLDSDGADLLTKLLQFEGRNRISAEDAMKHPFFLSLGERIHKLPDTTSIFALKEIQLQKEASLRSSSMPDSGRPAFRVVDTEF
Sequence of UniProt P27448 (whole entry, looked up): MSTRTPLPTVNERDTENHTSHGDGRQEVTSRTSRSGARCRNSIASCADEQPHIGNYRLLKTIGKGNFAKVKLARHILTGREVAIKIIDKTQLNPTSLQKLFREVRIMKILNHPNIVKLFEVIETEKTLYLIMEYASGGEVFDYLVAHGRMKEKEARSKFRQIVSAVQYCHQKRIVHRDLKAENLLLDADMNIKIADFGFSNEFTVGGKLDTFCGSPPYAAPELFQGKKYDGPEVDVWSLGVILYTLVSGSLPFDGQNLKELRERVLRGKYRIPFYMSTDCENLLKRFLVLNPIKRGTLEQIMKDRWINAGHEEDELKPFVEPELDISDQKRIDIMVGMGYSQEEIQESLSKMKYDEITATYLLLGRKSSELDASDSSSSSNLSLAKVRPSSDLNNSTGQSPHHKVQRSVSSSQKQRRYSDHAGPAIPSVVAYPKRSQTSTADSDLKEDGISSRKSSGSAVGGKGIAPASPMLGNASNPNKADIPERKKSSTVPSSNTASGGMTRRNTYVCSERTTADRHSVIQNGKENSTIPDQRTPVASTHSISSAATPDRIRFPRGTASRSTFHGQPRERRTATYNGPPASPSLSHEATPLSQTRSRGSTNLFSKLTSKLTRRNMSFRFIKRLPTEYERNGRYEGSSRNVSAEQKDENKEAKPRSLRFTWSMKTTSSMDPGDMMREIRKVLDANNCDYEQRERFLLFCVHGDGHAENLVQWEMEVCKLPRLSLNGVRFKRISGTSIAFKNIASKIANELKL
Sequence of UniProt Q9NQU5 (whole entry, looked up): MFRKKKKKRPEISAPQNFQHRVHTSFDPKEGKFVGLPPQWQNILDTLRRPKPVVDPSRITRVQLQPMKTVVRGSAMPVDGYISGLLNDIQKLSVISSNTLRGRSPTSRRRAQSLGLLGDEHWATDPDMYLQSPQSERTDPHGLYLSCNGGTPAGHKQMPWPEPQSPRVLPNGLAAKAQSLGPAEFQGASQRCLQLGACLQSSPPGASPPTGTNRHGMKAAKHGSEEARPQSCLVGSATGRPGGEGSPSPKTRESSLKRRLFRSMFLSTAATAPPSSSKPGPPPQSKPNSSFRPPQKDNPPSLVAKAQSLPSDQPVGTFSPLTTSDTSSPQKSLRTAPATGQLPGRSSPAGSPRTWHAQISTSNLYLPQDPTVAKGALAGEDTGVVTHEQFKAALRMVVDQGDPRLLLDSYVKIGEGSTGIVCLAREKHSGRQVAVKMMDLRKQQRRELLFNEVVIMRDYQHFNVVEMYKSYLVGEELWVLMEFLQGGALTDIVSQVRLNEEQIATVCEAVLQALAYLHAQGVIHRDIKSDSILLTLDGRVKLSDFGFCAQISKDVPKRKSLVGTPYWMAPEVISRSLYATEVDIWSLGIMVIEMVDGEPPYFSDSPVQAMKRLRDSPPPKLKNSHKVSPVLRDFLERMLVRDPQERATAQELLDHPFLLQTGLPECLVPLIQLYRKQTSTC
Sequence of UniProt Q15418 (whole entry, looked up): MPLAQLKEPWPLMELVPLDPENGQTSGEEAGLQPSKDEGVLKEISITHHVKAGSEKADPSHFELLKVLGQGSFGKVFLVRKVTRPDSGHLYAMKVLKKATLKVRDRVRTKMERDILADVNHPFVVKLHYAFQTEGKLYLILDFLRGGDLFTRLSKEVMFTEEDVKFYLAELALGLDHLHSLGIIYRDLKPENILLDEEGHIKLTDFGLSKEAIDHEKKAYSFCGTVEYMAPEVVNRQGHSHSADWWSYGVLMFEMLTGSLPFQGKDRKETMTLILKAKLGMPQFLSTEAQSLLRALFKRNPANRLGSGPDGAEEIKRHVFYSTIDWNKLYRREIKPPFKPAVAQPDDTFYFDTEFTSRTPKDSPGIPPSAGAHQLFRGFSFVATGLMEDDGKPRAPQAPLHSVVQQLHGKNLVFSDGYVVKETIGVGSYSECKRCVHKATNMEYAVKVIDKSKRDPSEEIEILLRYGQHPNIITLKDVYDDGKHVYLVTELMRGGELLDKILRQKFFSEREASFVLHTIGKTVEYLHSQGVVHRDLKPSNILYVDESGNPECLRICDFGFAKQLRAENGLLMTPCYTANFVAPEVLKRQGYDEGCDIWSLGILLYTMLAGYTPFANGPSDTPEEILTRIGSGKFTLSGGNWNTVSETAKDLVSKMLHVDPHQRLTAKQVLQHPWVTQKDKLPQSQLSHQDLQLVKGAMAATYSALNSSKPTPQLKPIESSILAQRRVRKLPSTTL
Sequence of UniProt Q9BZL6 (whole entry, looked up): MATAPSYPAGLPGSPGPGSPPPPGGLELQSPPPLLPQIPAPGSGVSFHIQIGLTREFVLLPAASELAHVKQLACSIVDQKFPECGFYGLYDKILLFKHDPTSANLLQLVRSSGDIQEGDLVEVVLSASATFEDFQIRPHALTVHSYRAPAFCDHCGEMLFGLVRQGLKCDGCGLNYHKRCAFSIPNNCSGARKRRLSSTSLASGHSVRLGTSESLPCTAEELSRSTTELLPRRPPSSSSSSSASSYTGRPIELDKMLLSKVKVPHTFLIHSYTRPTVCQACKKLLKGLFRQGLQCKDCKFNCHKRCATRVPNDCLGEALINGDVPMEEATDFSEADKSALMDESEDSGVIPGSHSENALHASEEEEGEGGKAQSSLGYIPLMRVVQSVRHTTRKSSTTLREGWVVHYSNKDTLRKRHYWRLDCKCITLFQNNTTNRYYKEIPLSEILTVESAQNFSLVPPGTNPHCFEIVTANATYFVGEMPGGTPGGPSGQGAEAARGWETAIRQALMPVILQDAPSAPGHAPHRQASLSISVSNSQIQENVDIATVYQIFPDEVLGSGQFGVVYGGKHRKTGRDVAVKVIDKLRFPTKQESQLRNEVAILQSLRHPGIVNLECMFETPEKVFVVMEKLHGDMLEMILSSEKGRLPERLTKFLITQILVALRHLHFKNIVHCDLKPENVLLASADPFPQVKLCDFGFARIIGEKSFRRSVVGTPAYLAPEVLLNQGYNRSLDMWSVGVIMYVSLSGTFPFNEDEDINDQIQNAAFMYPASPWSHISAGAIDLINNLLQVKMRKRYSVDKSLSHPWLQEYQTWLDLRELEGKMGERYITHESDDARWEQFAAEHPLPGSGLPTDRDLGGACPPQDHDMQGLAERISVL

Set 1
Structure (SMILES): O=C(Nc1cccnn1)N1CC(C/C=C/c2cncc(Oc3ccc(C(F)(F)F)cn3)n2)C1
Effect on: cell-free assay
Technique: competition with immobilised ligand
Concentration: 1 µM
target | remaining binding
MARK3 (Homo sapiens, UniProt P27448) | 100%
PRKD2 (Homo sapiens, UniProt Q9BZL6) | 100%
FGFR3 (Homo sapiens, UniProt P22607, G697C) | 100%
Ribosomal protein S6 kinase alpha-1, N-terminal kinase domain (RPS6KA1, Homo sapiens, UniProt Q15418) | 100%
PAK6 (Homo sapiens, UniProt Q9NQU5) | 100%
CDK16 (Homo sapiens, UniProt Q00536) | 81%
STK26 (Homo sapiens, UniProt Q9P289) | 71%

Set 2
Cell line: HaCaT
Concentration: 100 µM
Time: 36 h
Compound | viability
S=C1SCN(Cc2ccccc2)CN1Cc1ccccc1 | 6.02%
CC(=O)Oc1cc(C(F)(F)F)ccc1C(=O)O | 90.1%
CC1=C(/C=C/C(C)=C/C=C/C(C)=C/C(=O)O)C(C)(C)CCC1 | 61%
CCCCN(CCCC)CC(O)c1cc(Cl)cc2c1-c1ccc(Cl)cc1/C2=C/c1ccc(Cl)cc1 (stereo not shown) | 9.05%
CCC(=O)c1c(O)cc(O)cc1O | 86%
CCCNS(=O)(=O)Nc1ncnc(OCCOc2ncc(Br)cn2)c1-c1ccc(Br)cc1 | 90.1%
C/C(=C(\CCOP(=O)(O)O)SC(=O)c1ccccc1)N(C=O)Cc1cnc(C)nc1N | 58.1%

Set 3
Species: mouse
Matrix: microsomes or S9
Concentration: 2 µM
Time: 0.5 h
Compound | remaining compound
COc1ccc(C2C(C(=O)N3CCN(c4ccccn4)CC3)CCC(=O)N2c2cc(OC)c(OC)c(OC)c2)cc1 (stereo not shown) | 49.8%
O=C(CN1CCCCCC1)NCC12CCCC=C1NC(=O)CC2 (stereo not shown) | 26.5%
CC(C)Nc1ncnc2onc(-c3cc(F)cc(F)c3)c12 | 26.8%
O=C(c1ccccc1)c1c[nH]c(C(c2ccccc2)c2ccc(C(c3ccccc3)c3cc(C(=O)c4ccccc4)c[nH]3)o2)c1 (stereo not shown) | 32.5%
CC1C(c2ccccc2)CCC(C(=O)O)C1C(=O)O (stereo not shown) | 55.7%

Set 4
Target: Serine/threonine-protein kinase Nek4 (NEK4, Homo sapiens, UniProt P51957)
Sequence of UniProt P51957 (whole entry, looked up): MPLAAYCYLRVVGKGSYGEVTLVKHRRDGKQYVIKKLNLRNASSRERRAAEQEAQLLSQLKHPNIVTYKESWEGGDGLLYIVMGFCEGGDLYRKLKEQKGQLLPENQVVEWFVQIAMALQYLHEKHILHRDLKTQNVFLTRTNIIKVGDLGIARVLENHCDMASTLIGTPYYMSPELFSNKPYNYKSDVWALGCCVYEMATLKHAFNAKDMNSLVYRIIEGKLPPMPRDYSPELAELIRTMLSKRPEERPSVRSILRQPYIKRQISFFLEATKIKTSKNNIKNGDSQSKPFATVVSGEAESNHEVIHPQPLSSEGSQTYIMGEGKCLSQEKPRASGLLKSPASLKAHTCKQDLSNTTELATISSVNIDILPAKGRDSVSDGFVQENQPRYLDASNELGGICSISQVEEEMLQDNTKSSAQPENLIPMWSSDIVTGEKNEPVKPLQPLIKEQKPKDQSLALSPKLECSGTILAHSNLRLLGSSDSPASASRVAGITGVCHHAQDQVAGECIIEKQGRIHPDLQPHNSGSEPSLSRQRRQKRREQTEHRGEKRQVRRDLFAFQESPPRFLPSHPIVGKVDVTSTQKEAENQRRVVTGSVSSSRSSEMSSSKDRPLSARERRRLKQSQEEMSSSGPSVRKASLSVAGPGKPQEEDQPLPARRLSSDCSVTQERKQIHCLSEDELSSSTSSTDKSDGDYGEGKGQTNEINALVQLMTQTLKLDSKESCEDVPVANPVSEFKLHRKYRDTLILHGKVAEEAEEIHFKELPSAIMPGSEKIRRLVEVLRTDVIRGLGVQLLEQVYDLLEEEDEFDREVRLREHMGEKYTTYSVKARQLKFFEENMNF
Effect on: enzyme activity
Mode: inhibitor
Concentration: 0.5 µM
Baseline: control
SMILES | remaining activity
Cc1ccc(NC(=O)c2ccc(CN3CCN(C)CC3)cc2)cc1Nc1nc(-c2cccnc2)cs1 | 92.4%
OCC(O)CCON=C1C(c2c(O)[nH]c3ccccc23)=Nc2ccccc21 (stereo not shown) | 83.9%
CO[C@H]1C[C@@H]2CC[C@@H](C)[C@@](O)(O2)C(=O)C(=O)N2CCCC[C@H]2C(=O)O[C@H]([C@H](C)C[C@@H]2CC[C@@H](O)[C@H](OC)C2)CC(=O)[C@H](C)/C=C(\C)[C@@H](O)[C@@H](OC)C(=O)[C@H](C)C[C@H](C)/C=C/C=C/C=C/1C | 97.2%
Cn1c2ccccc2c2c3c(c4c5ccccc5n(CCC#N)c4c21)CNC3=O | 49.1%
C#Cc1cccc(Nc2ncnc3cc(OCCOC)c(OCCOC)cc23)c1 | 100%
O=C1NC(=O)C(c2cn(CCCn3ccnc3)c3ccccc23)=C1Nc1ccccc1 | 94.9%
CN(C)c1ccc(C=C2C(=O)Nc3ccccc32)cc1 | 102%
O=c1c2ccccc2[nH]c(=S)n1CCN1CCC(=C(c2ccc(F)cc2)c2ccc(F)cc2)CC1 | 99.1%
N#CC(C#N)=C(N)/C(C#N)=C/c1ccc(O)cc1 | 93.3%
Nc1ncnc2n[nH]c(Nc3ccc(F)cc3)c12 | 92.8%
CC(C)[C@H](CO)Nc1nc(Nc2cc(N)cc(Cl)c2)c2ncn(C(C)C)c2n1 | 80.2%
Cc1ccc(Nc2nccc(N(C)c3ccc4c(C)n(C)nc4c3)n2)cc1S(N)(=O)=O | 91.1%
O=C(O)c1ccc2c3c1cccc3c(=O)n1c3ccccc3nc21 | 60.4%
CNC(=O)c1cc(Oc2ccc(NC(=O)Nc3ccc(Cl)c(C(F)(F)F)c3)cc2)ccn1 | 99.5%
COc1ccc(OC)c2c(=S)c3ccccc3[nH]c12 | 87.7%

A few entries again (set 1):
target | remaining binding
PRKD2 (Homo sapiens, UniProt Q9BZL6) | 100%
FGFR3 (Homo sapiens, UniProt P22607, G697C) | 100%
Ribosomal protein S6 kinase alpha-1, N-terminal kinase domain (RPS6KA1, Homo sapiens, UniProt Q15418) | 100%
PAK6 (Homo sapiens, UniProt Q9NQU5) | 100%
CDK16 (Homo sapiens, UniProt Q00536) | 81%
